Results from different studies.
Each line is one published result; not all experiments were run side by side. Numbers after ± are the reported error.

Compound	target or system	assay	test system	conditions	quantity	result
OC[C@H]1O[C@@H](OCCc2ccccc2)[C@H](O)[C@@H](O)[C@@H]1O	human cells				CC50	> 100 µM
COc1ccc(CNc2nc(N3CCC[C@H]3CO)ncc2C(=O)NN)cc1Cl	Salmonella typhimurium		TA98	500 µg/plate, 48 h, together with: rat liver S9	revertant count	37 ± 2
C[C@@H](CO)C(=O)OCCc1ccc(O)cc1	human cells				CC50	> 100 µM
CN[C@](C)(C[18F])C(=O)O	MDA-MB-468 tumour model		host not given, tumour	2 h, tumour-bearing	tracer uptake	1.5 %ID/g
CC(C)C[C@H](NC(=O)[C@H](CC(N)=O)NC(=O)[C@H](CCCCN)NC(=O)[C@H](CC(C)C)NC(=O)[C@H](Cc1ccccc1)NC(=O)CNC(=O)[C@H](CC(C)C)NC(=O)[C@@H](N)Cc1ccccc1)C(=O)N[C@@H](Cc1ccccc1)C(N)=O	Huh-7.5.1	cell growth or viability, MTT		20 µg/mL, 48 h	viability	> 95%
COc1cc(C(=O)NCCOCCOCCOCCNC(=O)c2ccc([18F])nc2)ccc1NC(=O)C1NC(CC(C)(C)C)C(C#N)(c2ccc(Cl)cc2F)C1c1cccc(Cl)c1F (stereo not shown)	SJSA-1 tumour model		host not given, liver	1 h, tumour-bearing	tracer uptake	1.63 %ID/g
Nc1nc(SCCCN2CCCCC2)nc2sc3c(c12)CCC(c1ccccc1)C3 (stereo not shown)	A549			12.5 µM	viability	~20%
Oc1cc(O)c2c(c1)O[C@@]1(c3ccc(O)c(O)c3)Oc3cc(O)c4c(c3[C@@H]2[C@H]1O)O[C@H](c1ccc(O)c(O)c1)[C@H](O)C4	human cells				CC50	797 ± 63.7 µM
COC1=C[C@@H]2[C@@H]3Cc4ccc(OC)c(OC(=O)[C@H](C)N)c4[C@]2(CCN3C)CC1=O	RAW264.7	cytotoxicity, MTT		24 h	IC50	> 100 µM
N#Cc1cccc(-c2ccccc2C(N)=O)c1	human cells			24 (unit not given)	CC50	18.8 µM
CC[C@H](C)C(=O)N1CCC(NC(=O)Nc2ccc(OC(F)(F)F)c(F)c2)CC1			healthy volunteers	oral, 0.5 mg single dose, 14 (unit not given)	subjects with dyspnoea TEAE	0%
CN(C)CC1CCCCC1(O)c1cccc(O)c1 (stereo not shown)	Caco-2 TC7			3 h, pH 7.4, range over concentrations	efflux ratio	0.9 to 1.1
COC1=C[C@@H]2[C@@H]3Cc4ccc(OC)c(OC(=O)CN)c4[C@]2(CCN3C)CC1=O	RAW264.7	cytotoxicity, MTT		24 h	IC50	> 100 µM
